Published values gathered from unrelated publications.
Parts stem from different laboratories: compare values within a part only. Substitutions count along the parent as printed.

Study 1
Target: CCNA2, cyclin fold, Cln2 fusion (human)
Technique: yeast growth competition, sequencing
Matrix: yeast
Notes: strong parent motif
Reference: not given
Reading: higher = stronger binding
Starting sequence: viral docking peptide; YKVKRRLVFGADD
Under “normalised enrichment score”, `D12L` is recorded as 6.02.
Under “normalised enrichment score”, `A11Q` is recorded as 5.99.
Under “normalised enrichment score”, `V8P` is recorded as 5.07.
Under “normalised enrichment score”, `V3L` is recorded as 4.62.

Study 2
Target: UDP-N-acetylglucosamine--peptide N-acetylglucosaminyltransferase 110 kDa subunit (OGT, Homo sapiens, UniProt O15294)
UniProt O15294, sequence (whole entry, looked up): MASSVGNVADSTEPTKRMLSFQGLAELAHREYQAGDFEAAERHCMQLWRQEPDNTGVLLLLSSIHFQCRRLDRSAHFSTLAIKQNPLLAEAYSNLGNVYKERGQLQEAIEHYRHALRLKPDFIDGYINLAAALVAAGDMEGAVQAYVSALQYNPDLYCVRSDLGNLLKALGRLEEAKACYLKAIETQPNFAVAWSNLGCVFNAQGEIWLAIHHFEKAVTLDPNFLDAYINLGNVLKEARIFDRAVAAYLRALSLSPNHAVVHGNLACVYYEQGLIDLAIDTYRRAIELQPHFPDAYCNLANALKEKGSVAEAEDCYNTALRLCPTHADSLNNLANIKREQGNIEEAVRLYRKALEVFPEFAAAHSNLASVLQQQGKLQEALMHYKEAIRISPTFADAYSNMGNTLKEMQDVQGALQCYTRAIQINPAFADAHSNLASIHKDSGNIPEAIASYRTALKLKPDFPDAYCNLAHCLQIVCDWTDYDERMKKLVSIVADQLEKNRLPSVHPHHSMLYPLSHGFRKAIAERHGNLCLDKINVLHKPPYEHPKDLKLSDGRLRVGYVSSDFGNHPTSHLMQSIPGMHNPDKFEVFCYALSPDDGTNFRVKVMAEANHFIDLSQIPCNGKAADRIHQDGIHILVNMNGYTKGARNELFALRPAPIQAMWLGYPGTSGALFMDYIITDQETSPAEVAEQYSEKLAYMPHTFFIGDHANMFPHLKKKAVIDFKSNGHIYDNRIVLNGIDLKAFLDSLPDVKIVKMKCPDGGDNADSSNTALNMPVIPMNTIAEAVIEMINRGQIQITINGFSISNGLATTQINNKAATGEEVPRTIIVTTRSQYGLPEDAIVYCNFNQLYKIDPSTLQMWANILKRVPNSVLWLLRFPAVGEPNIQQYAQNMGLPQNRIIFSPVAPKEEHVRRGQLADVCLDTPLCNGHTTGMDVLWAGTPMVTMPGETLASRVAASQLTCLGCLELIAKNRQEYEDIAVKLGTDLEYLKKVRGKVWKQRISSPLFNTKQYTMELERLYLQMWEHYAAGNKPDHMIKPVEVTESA
Effect on: binding
Technique: phage display NGS
Form: peptide
Tested at: concentration not given
Reference: input library
Under “enrichment fold change”, `LPIPKFLPIYQLKLE` is recorded as 1.64.
`YYLPAYQIAPKYVQD`: “enrichment fold change” 7.4.
`YERDYQHFMPQYQIM`: “enrichment fold change” 2.39.
Under “enrichment fold change”, `HTFREHYINHWTHSI` is recorded as 10.1.

Study 3
Target: RNA binding protein fox-1 homolog 2, RRM domain, GST-SBP tag (RBFOX2, Homo sapiens, UniProt O43251-10, residues 100-194)
Technique: RNA Bind-n-Seq
Form: RNA
Matrix: in vitro
Tested at: 365 nM
Notes: natural RNA segment, single round, ends assumed
Reference: no-protein control
Reading: higher = stronger binding
Target sequence (chain): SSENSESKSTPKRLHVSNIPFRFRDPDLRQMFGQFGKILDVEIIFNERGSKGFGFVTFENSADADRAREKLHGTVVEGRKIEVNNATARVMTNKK
`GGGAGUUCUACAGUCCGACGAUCUUUGUUAUUAAAGCAUCCAGGGCAAUUUAAUAUUUGUUCCUAGAUGUAACUCAUUUGAAUAGGUUUUGCAUUUGUUAUUCAGCAGUGUAUAAAGCUAACCUUGAUAAUUUUGGAAUUCUCGGGUGCCAA` — result for “RBNS enrichment (R)”: 0.691.
`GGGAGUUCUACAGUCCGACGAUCAUUUUUGUUUACAAUAUUAAAAUGUAUGUUAGCAAAUGGGUGGAUUUUCAAAUAAAAUGCAGCUUCCACAAAACAUGUUACGGUGUUCUGGUUUGAGGUGUGUUCUCCUUUGGAAUUCUCGGGUGCCAA`: “RBNS enrichment (R)” 0.296.
`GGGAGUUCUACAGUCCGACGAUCCUAUUAUUUGUUUUCAAUGUAUAAAGGCAGUAUUUCCCUUUUCAGGUUGCUGAGAAAUGUAAGAGGAGCUGAAGUACAUUGUAUGCAGUUACUGACUGCUUUAGGCAUAGUGGAAUUCUCGGGUGCCAA`: “RBNS enrichment (R)” 0.343.
`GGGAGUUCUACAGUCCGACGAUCGACCCCCACUUAGCCCUUCUCUCCUUGCAGCCUAGCAGUUUAUAGUUCUGAGAUGGAAAGUUGAAGGGGGCAAGCAAGACCUCUCCUCAGCCCAUGCCCAGCUGUCAGGAUGGAAUUCUCGGGUGCCAA` — result for “RBNS enrichment (R)”: 0.551.
`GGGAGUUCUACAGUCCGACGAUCGGAUGCCACUCUCCCACUUGUAAUUCUCAACGCAAAACAAGUGGAACUGAUUUUACAAAGAUAGAGAAACAGCACAAUCAAUUCCAAAUGGCAUGCGAUGGUCUGCAGGUUGGAAUUCUCGGGUGCCAA`: “RBNS enrichment (R)” 1.29.
For `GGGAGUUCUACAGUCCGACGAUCGGGGCAGUGGGUUGGGGUUGUUUUUACUACAAAAUAAGUUACUUAGUUUUAUAAAGACAAACCGAUUGUAGCCAAAUGACACCAUAUUUAAUAAAAUUUAGUCUGAAGUGUGGAAUUCUCGGGUGCCAA`, “RBNS enrichment (R)” read 0.588.
Under “RBNS enrichment (R)”, `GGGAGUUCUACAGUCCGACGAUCCAACUCAGAUCAAAAAUGGGCAGCCAAGUCUUCGGUAGGAAUUGGAGCCGGUGUAAUUCCUCCCUAAGAGGCAACCUGUUGAAUUUACUCUCUCAGAGUAAAUGGUGGGAUGGAAUUCUCGGGUGCCAA` is recorded as 0.333.
Under “RBNS enrichment (R)”, `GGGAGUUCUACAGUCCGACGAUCCAGGUUCCACGCCAUCUGCAUGGCCUGCAGGAGCUUCUGCUGCUGACCCCAUGCUGAGUGGCCAGUGGGGAGCGGCGCCCGGCAGGCUCUUCUGGGGUCGUCUGUCCUAUUGGAAUUCUCGGGUGCCAA` is recorded as 0.409.

Other studies, line by line
Target: tungstate, free oxyanion
Technique: microfluidic competitive inhibition
Matrix: in vitro, cell-free expressed
Tested at: not given
Notes: derived from inhibition constants, unchanged parent 2230 nM
Reading: lower = stronger binding
Starting sequence: PafA, mature enzyme, eGFP fusion (Elizabethkingia meningoseptica, UniProt Q9KJX5); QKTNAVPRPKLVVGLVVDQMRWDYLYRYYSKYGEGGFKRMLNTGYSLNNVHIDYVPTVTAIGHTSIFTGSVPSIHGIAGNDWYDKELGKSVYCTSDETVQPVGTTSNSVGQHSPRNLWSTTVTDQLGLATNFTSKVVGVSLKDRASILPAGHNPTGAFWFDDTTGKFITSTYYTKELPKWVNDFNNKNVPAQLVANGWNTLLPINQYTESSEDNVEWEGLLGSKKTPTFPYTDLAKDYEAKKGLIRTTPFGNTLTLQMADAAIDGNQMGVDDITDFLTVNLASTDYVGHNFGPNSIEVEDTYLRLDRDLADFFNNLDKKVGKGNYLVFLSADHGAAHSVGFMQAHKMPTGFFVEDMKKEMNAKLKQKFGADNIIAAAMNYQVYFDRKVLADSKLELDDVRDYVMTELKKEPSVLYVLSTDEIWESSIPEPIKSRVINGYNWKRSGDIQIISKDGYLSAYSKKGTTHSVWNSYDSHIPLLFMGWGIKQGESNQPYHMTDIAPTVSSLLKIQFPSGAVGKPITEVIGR
`V416G`: “oxyanion analog dissociation constant” 1.67 µM.
`A515G` — result for “oxyanion analog dissociation constant”: 2.12 µM.
`Y26G` — result for “oxyanion analog dissociation constant”: 1.51 µM.

Excerpt of the above (study 2):
Under “enrichment fold change”, `LPIPKFLPIYQLKLE` is recorded as 1.64.
